# Published values from different studies.
# Compare with care: the assays were run in different laboratories. ± gives the spread as reported.
# CYP2C19: Cytochrome P450 2C19 (CYP2C19, Homo sapiens, UniProt P33261)
# Chain of UniProt P33261 (whole entry, looked up): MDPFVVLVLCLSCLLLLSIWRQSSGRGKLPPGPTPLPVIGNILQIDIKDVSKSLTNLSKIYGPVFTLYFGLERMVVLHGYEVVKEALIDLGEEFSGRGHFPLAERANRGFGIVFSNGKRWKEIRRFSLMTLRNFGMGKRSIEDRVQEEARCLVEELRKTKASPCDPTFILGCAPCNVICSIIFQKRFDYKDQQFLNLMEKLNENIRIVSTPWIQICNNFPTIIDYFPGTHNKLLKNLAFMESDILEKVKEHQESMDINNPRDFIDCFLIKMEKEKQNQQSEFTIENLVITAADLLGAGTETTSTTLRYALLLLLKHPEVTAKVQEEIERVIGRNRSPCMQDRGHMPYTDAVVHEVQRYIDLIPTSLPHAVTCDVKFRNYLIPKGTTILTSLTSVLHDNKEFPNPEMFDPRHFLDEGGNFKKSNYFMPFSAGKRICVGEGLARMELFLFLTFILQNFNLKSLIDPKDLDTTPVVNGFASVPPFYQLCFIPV
# CYP2C8: Cytochrome P450 2C8 (CYP2C8, Homo sapiens, UniProt P10632)
# sspA: Glutamyl endopeptidase (sspA, Staphylococcus aureus, UniProt P0C1U8)
# Chain of UniProt P0C1U8 (whole entry, looked up): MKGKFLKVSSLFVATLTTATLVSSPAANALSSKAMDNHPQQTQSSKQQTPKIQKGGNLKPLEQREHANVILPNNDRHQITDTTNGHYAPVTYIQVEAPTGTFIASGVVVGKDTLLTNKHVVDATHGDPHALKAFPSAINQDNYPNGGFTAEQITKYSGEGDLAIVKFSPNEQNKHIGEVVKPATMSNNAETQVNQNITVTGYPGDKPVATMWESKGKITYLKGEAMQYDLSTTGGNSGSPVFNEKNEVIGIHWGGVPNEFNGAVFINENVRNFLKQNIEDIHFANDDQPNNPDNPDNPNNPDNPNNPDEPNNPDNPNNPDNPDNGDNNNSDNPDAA
# Chain of UniProt P11712 (whole entry, looked up): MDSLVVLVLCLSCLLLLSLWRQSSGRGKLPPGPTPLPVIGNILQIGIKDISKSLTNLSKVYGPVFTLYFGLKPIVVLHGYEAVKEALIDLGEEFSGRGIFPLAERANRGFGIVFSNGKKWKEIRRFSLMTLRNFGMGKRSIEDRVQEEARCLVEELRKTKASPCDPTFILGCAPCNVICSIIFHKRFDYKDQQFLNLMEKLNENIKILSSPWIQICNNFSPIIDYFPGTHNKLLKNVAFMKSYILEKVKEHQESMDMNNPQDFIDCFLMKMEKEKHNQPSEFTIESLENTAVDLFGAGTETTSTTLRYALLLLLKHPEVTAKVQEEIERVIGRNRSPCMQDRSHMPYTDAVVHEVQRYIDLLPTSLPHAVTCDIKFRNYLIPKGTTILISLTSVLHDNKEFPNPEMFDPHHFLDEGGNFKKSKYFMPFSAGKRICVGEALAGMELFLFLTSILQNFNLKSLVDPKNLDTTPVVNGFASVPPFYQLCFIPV
# Chain of UniProt O89049 (whole entry, looked up): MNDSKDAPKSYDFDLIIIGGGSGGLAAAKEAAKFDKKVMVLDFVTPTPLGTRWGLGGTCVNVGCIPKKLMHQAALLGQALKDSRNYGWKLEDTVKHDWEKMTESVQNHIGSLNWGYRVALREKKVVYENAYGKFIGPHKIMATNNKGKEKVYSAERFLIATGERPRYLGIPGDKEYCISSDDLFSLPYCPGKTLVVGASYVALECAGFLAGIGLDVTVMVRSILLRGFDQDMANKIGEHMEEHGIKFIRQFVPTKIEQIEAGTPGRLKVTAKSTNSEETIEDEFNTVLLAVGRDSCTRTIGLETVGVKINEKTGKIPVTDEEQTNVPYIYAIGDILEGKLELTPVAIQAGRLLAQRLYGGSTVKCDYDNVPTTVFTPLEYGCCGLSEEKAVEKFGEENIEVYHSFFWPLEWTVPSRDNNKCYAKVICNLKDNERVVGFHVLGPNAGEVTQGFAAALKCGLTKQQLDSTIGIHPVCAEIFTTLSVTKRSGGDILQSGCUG
# Chain of UniProt P08183 (whole entry, looked up): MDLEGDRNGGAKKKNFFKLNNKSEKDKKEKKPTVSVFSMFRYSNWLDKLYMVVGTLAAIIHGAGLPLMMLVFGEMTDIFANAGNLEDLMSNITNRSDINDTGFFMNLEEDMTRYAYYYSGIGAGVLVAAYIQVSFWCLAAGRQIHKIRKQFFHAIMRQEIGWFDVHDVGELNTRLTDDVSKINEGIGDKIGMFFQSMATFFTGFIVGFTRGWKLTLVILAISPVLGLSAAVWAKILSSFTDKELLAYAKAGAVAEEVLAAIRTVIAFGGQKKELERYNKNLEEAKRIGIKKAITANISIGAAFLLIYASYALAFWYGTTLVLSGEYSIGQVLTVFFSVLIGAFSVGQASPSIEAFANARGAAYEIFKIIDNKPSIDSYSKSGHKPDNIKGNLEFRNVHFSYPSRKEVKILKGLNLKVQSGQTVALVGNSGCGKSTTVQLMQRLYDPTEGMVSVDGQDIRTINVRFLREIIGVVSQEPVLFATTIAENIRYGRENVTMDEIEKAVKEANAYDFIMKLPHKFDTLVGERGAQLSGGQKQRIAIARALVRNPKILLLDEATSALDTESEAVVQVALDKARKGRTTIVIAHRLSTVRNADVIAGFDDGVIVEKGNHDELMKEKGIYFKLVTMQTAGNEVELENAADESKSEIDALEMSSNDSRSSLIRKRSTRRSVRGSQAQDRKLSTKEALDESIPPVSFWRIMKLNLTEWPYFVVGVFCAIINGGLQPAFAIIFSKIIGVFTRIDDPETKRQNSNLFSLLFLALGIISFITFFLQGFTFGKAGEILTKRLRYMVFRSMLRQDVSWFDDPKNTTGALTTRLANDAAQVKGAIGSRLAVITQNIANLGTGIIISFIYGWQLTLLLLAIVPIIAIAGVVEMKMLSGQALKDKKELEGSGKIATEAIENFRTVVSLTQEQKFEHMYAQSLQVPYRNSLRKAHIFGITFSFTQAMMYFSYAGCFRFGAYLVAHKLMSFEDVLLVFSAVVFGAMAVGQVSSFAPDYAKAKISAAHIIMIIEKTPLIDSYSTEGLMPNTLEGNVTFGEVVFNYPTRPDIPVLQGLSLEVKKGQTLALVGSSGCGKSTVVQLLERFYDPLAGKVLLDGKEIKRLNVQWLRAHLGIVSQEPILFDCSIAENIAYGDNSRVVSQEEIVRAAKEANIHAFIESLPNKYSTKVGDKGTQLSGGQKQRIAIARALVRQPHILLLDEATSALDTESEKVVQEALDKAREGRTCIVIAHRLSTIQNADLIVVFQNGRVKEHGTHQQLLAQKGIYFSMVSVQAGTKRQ
# Chain of UniProt P61073 (whole entry, looked up): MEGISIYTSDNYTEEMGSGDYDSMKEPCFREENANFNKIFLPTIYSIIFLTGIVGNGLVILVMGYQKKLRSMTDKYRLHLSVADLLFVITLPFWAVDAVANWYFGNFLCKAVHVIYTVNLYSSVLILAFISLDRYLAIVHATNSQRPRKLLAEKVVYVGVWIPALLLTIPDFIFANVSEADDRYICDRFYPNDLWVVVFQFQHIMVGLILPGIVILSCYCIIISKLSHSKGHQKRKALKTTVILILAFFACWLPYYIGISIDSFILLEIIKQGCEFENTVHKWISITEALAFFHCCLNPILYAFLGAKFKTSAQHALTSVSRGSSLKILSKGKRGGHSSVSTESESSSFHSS
# Chain of UniProt Q06520 (whole entry, looked up): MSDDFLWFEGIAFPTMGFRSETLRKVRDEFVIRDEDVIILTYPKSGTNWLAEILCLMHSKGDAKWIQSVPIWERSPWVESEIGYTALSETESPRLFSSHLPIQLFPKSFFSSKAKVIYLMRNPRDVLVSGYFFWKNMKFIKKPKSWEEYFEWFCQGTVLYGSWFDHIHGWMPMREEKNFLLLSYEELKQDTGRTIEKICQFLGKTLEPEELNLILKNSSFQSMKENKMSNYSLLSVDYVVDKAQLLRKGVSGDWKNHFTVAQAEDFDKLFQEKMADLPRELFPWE
# Chain of UniProt P08684 (whole entry, looked up): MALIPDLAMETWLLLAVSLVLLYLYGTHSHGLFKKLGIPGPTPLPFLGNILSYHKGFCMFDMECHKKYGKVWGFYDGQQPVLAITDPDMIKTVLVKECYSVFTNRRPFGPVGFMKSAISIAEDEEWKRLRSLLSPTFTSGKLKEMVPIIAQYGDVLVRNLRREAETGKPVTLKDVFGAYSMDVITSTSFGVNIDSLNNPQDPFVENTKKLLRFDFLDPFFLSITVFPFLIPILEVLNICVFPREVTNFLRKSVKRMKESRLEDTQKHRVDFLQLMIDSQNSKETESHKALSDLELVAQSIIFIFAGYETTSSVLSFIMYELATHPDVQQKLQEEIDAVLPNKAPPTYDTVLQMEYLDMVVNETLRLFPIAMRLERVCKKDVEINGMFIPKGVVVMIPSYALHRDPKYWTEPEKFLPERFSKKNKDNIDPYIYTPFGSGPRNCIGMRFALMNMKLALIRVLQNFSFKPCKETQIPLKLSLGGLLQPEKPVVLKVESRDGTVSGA
Compound,target,assay,test system,setting,scale,measurement,value
C=CCc1ccc(O)c(-c2cc(CC=C)cc(O)c2O)c1,"ABCB1 (Homo sapiens, UniProt P08183)",rhodamine 123 efflux,,50 µM,baseline: GF120918 0.5 µM,inhibition,-0.3 ± 2.8%
[64Cu+2].c1ccc(CNCc2ccc(CN3CCCNCCNCCCNCC3)cc2)nc1,CXCR4,,"NOD/SCID mouse, U87 and U87-stb-CXCR4 xenografts, muscle","iv, 90 min, no blocking dose, ex vivo",,tissue uptake,0.29 ± 0.02 %ID/g
Cn1cc(-c2cccc(CN3CCC4(CC3)COc3c4ccc4c3CN([C@H]3CCC(=O)NC3=O)C4=O)c2)cn1,"Cytochrome P450 3A4 (CYP3A4, Homo sapiens, UniProt P08684)","enzyme activity, inhibitor",,,,IC50,> 10 µM
Cc1cn2c(C(=O)NCc3ccc(C(F)(F)F)cc3)c(C)nc2s1,CYP2C19,inhibitor,,,,IC50,18.7 µM
C[C@]12CC[C@H](O)CC1CCC1C2[C@H](O)C(=O)[C@]2(C)[C@@H](c3ccc(=O)oc3)CC[C@]12O (some centres unmarked),"SULT2A1 (Homo sapiens, UniProt Q06520)",substrate,recombinant human enzyme,"1 µM, 60 min, pH 7.4",,sulfation rate,0.021 nmol/min/mg enzyme
CC(C)(O)c1ccccc1CC[C@H](c1cccc(/C=C/c2ccc3ccc(Cl)cc3n2)c1)[S+]([O-])CC1(CC(=O)O)CC1 (some centres unmarked),CYP2C8,,human liver microsomes,"10 µM, pH 7.4, with: paclitaxel",,inhibition,97.3%
CCn1c(-c2ccc(-c3ccc(F)cc3)cc2)c(-c2ccc(-c3ccc(F)cc3)cc2)n(CC)c1=[Se+][Au-][P+](CC)(CC)CC.Cl,"Txnrd1 (Rattus norvegicus, UniProt O89049)","enzyme activity, inhibitor",,,,IC50,0.0166 µM
CC(C)C[C@H](NC(=O)[C@H](CCCCN)NC(=O)[C@H](CCCNC(=N)N)NC(=O)[C@@H](CC(C)C)NC(=O)[C@H](Cc1c[nH]c2ccccc12)NC(=O)[C@H](CC(=O)O)NC(=O)[C@H](CCCCN)NC(=O)[C@@H](CC(C)C)NC(=O)[C@H](CCCNC(=N)N)NC(=O)[C@H](CCC(N)=O)NC(=O)[C@@H](NC(=O)[C@@H](CC(C)C)NC(=O)[C@H](CCCNC(=N)N)NC(=O)[C@H](CCCCN)NC(=O)[C@H](Cc1c[nH]c2ccccc12)NC(=O)CN)C(C)C)C(=O)N[C@H](C(N)=O)C(C)C,sspA,"substrate, SDS-PAGE",,"24 h, pH 7.4, 37 °C",,proteolytic stability,stable
CNC(=O)Oc1cc(C)c([S+](C)[O-])c(C)c1 (centres unmarked),"Cytochrome P450 2C9 (CYP2C9, Homo sapiens, UniProt P11712)",inhibitor,human liver microsomes,"10 µM, pH 7.4, with: diclofenac",,inhibition,4.82%
CCN(CC)CCOc1ccc(-c2nnn(Cc3ccc(OC)cc3)c2N)cc1,CYP2C8,"enzyme activity, inhibitor",,concentration not given,,inhibition,no inhibition
NCCCC[C@H](NC(=O)[C@H](Cc1ccc(O)cc1)NC(=O)[C@H](CCCCN)NC(=O)[C@H](Cc1c[nH]c2ccccc12)NC(=O)[C@H](Cc1ccccc1)NC(=O)[C@H](Cc1ccccc1)NC(=O)Cc1ccc(-c2ccccc2)cc1)C(=O)NCC(=O)N[C@@H](Cc1c[nH]cn1)C(=O)N1CCC[C@H]1C(=O)NCC(=O)NCC(=O)N1CCC[C@H]1C(=O)N[C@@H](CCC(N)=O)C(=O)N[C@@H](CC(=O)O)C(=O)N[C@@H](CC(=O)O)C(=O)N[C@@H](CC(=O)O)C(=O)N[C@@H](CC(=O)O)C(=O)N[C@@H](CC(=O)O)C(=O)N[C@@H](CC(=O)O)C(=O)O,"cathepsin K (human, recombinant)","substrate, LC-MS",,"64 µM, pH 5.5, 37 °C, 0.1% DMSO",,half-life,2.29 h
CNC(=O)Oc1cc(C)c(S(C)(=O)=O)c(C)c1,CYP2C8,,human liver microsomes,"10 µM, pH 7.4, with: paclitaxel",,inhibition,< 0%
CC(C)C[C@H](NC(=O)[C@H](CCCCN)NC(=O)[C@H](CCCNC(=N)N)NC(=O)[C@@H](CC(C)C)NC(=O)[C@H](Cc1ccc(C(C)(C)C)cc1)NC(=O)[C@H](CC(=O)O)NC(=O)[C@H](CCCCN)NC(=O)[C@@H](CC(C)C)NC(=O)[C@H](CCCNC(=N)N)NC(=O)[C@H](CCC(N)=O)NC(=O)[C@@H](NC(=O)[C@@H](CC(C)C)NC(=O)[C@H](CCCNC(=N)N)NC(=O)[C@H](CCCCN)NC(=O)[C@H](Cc1ccc(-c2ccccc2)cc1)NC(=O)CN)C(C)C)C(=O)N[C@H](C(N)=O)C(C)C,sspA,"substrate, SDS-PAGE",,"24 h, pH 7.4, 37 °C",,proteolytic stability,stable
CC[C@H](C)[C@H](NC(=O)[C@H](CCCNC(=N)N)NC(=O)[C@H](CCC(N)=O)NC(=O)[C@@H](NC(=O)[C@@H](NC(=O)[C@H](CCCNC(=N)N)NC(=O)[C@H](CCCCN)NC(=O)[C@H](Cc1ccccc1)NC(=O)CN)[C@@H](C)CC)C(C)C)C(=O)N[C@@H](CCCCN)C(=O)N[C@@H](CC(=O)O)C(=O)N[C@@H](Cc1ccccc1)C(=O)N[C@@H](CC(C)C)C(=O)N[C@@H](CCCNC(=N)N)C(=O)N[C@@H](CC(N)=O)C(=O)N[C@@H](CC(C)C)C(=O)N[C@H](C(N)=O)C(C)C,sspA,"substrate, tricine SDS-PAGE",,"pH 8, 37 °C, with: peptide:protease 40:1",,stability time,< 24 h
CC(C)(O)c1ccccc1CC[C@H](c1cccc(/C=C/c2ccc3ccc(Cl)cc3n2)c1)S(=O)(=O)CC1(CC(=O)O)CC1,CYP2C8,,human liver microsomes,"10 µM, pH 7.4, with: paclitaxel",,inhibition,96.5%
C=CC(=O)Nc1cc(Nc2nccc(-c3cn(C)c4ccccc34)n2)c(OCC(F)(F)F)nc1N(C)CCN(C)C,CYP2C8,"enzyme activity, inhibitor","human, liver microsomes",3.33 µM,,activity vs control,102%
CCCS(=O)(=O)c1ccc2[nH]c(NC(=O)OC)nc2c1,CYP2C8,,human liver microsomes,"2 µM, pH 7.4, with: paclitaxel",,inhibition,< 0%
CN1C(=O)[C@@H](Cc2ccc(O)cc2)NC(=O)CNC(=O)[C@H](Cc2ccc3ccccc3c2)NC(=O)[C@H](CCCNC(=N)N)NC(=O)[C@H]1CCCNC(=O)c1ccc(CNC(=O)CN2CCN(CC(=O)O)CCN(CC(=O)O)CCN(CC(=O)O)CC2)cc1 [gallium-68 labelled],"CXCR4 (Homo sapiens, UniProt P61073)",PET,"human, FDG-avid maxillary focus (dental infection)",,,uptake,negative
O=C1Cc2cc(CCN3CCN(C4=NS(=O)(=O)c5ccccc54)CC3)c(Cl)cc2N1,CYP2C8,,human liver microsomes,"2 µM, pH 7.4, with: paclitaxel",,inhibition,< 0%
COc1ccc(CCNc2cc(-c3ccccc3)nc3ncnn23)cc1,CYP2C19,,,,,IC50,< 1 µM

# Repeated from above:
Compound,target,assay,test system,setting,scale,measurement,value
CC[C@H](C)[C@H](NC(=O)[C@H](CCCNC(=N)N)NC(=O)[C@H](CCC(N)=O)NC(=O)[C@@H](NC(=O)[C@@H](NC(=O)[C@H](CCCNC(=N)N)NC(=O)[C@H](CCCCN)NC(=O)[C@H](Cc1ccccc1)NC(=O)CN)[C@@H](C)CC)C(C)C)C(=O)N[C@@H](CCCCN)C(=O)N[C@@H](CC(=O)O)C(=O)N[C@@H](Cc1ccccc1)C(=O)N[C@@H](CC(C)C)C(=O)N[C@@H](CCCNC(=N)N)C(=O)N[C@@H](CC(N)=O)C(=O)N[C@@H](CC(C)C)C(=O)N[C@H](C(N)=O)C(C)C,sspA,"substrate, tricine SDS-PAGE",,"pH 8, 37 °C, with: peptide:protease 40:1",,stability time,< 24 h
